# Measurements gathered from unrelated publications.
# ± gives the spread as reported.
Substance,tested on,assay,system,setting,scale,quantity,value
C=CC(=O)OCCO,cysteine peptide Ac-RFAACAA-COOH,DPRA RapidFire-MS/MS,,"24 h, pH 7.5, added: 5.0 µM cysteine peptide",,maximal peptide depletion,-132%
CCC1=C[C@@H]2CN3CCc4c([nH]c5ccccc45)[C@@](C(=O)OC)(C2)[C@@H]13,GABA-A receptor α1β2(M286C)γ2S,,Xenopus oocytes,"100 µM, added: GABA EC5",baseline: GABA EC5 current,maximal potentiation,264 ± 28%
CN[C@@](C)(C[18F])C(=O)O,DU-145 tumour model,,"host not given, kidney","2 h, tumour-bearing",,tracer uptake,3.6 %ID/g
O=C(NCNC(=O)NC1C(=O)NC(=O)N1CO)NC1C(=O)NC(=O)N1CO (stereo not drawn),cysteine peptide Ac-RFAACAA-COOH,DPRA RapidFire-MS/MS,,"24 h, pH 7.5, added: 5.0 µM cysteine peptide",,peptide depletion,inactive
Nc1nc(/C(=N/O)C(=O)N[C@@H]2C(=O)N3C(C(=O)O)=C(/C=C4\CCN([C@@H]5CCNC5)C4=O)CS[C@H]23)ns1,Neisseria gonorrhoeae PBP2 H041,,,"1 h, pH 8.0, room temperature, added: Bocillin-FL competitor",,acylation rate constant k2/Ks,3230 ± 190 M⁻¹ s⁻¹
O=S(=O)(CC1CS1)c1ccc(Oc2ccccc2)cc1 (stereo not drawn),LRP1,ELISA,"apoE4-TR mice, soluble brain fraction","intraperitoneal, 25 mg/kg, 45 min before intracranial Aβ, brains collected 10 min later, added: intracranial Aβ(1-42)","baseline: vehicle, higher = stronger reduction",soluble LRP1 level,> 2 fold
O=C(O)c1cc2ccccc2c(Cc2c(O)c(C(=O)O)cc3ccccc23)c1O,PCSK9 (mouse),"NGS, item: PCSK9 locus","mouse, hydrodynamic injection, liver","80 or 160 mg/kg, SpyCas9 genome editing, after three treatment cycles",,indel frequency,≤ 0.5%
O=C1c2cc(OCc3ccccc3)nn2CCN1c1ccc(F)cc1,"mGlu1, 2, 4, 6, 7, 8 receptors",,,selectivity screen,,EC50,> 10 µM
C=CC1=C(C(=O)O)N2C(=O)[C@@H](NC(=O)/C(=N\OCC(=O)O)c3csc(N)n3)[C@H]2SC1,Neisseria gonorrhoeae PBP2 H041,,,"1 h, pH 8.0, room temperature, added: Bocillin-FL competitor",,acylation rate constant k2/Ks,720 ± 60 M⁻¹ s⁻¹
Oc1ccc(Cl)cc1-c1cc(Cl)c(Cl)c(Cl)c1Cl,"aequorin, Aequorea victoria","bioluminescence, inhibitor",,"1.0×100 µM, added: coelenterazine",baseline: no inhibitor,inhibition,91%
FWWAAFFKG,adeno-associated virus 2,"capsid binding, bind-and-elute chromatography",peptide,"peptide ligand resin, MgCl2 elution",,recovery yield,44.8%
C[C@@H](CO)CCC[C@@H](C)[C@H]1CC[C@H]2[C@@H]3CC=C4C[C@@H](O)CC[C@]4(C)[C@H]3CC[C@]12C,mouse carboxylesterase,enzyme activity,J774 cell lysate,"concentration not given, added: p-nitrophenyl valerate",,inhibition,no inhibition
CO/N=C(\C(=O)N[C@@H]1C(=O)N2C(C(=O)O)=C(COC(C)=O)CS[C@H]12)c1csc(N)n1,Neisseria gonorrhoeae PBP2 H041,,,"1 h, pH 8.0, room temperature, added: Bocillin-FL competitor",,acylation rate constant k2/Ks,880 ± 120 M⁻¹ s⁻¹
C[C@H](NC(=O)Cc1cc(F)cc(F)c1)C(=O)N[C@H]1N=C(c2ccccc2)c2ccccc2N(C)C1=O,γ-secretase,"inhibitor, microdialysis","J20 hAPP transgenic mice, 24 months, hippocampal interstitial fluid","intraperitoneal, 3 mg/kg",baseline: pre-injection level,ISF Aβ42 reduction,~20%
O=C(O[C@@H]1Cc2c(O)cc(O)cc2O[C@@H]1c1cc(O)c(O)c(O)c1)c1cc(O)c(O)c(O)c1,alpha-synuclein,circular dichroism,,"2 molar equivalents, 4 h, pH 6.6, 37 °C, added: HFIP 2 vol-%",baseline: uninhibited control,β-structure formation,38 ± 11%

# A few entries again:
Substance,tested on,assay,system,setting,scale,quantity,value
O=C(O[C@@H]1Cc2c(O)cc(O)cc2O[C@@H]1c1cc(O)c(O)c(O)c1)c1cc(O)c(O)c(O)c1,alpha-synuclein,circular dichroism,,"2 molar equivalents, 4 h, pH 6.6, 37 °C, added: HFIP 2 vol-%",baseline: uninhibited control,β-structure formation,38 ± 11%
